Published values from different studies.
± marks the error that the study gave.

Compound | assay | test system | setting | scale | measurement | result
COc1cc2c(cc1OC)-c1cc3ccc(OC)c(OC)c3c[n+]1CC2 |  | rat, STZ-induced diabetic, serum | oral, 12 mg/kg, day 28 |  | ALP activity | 152 ± 4.15 U/L
CCCC[C@H](NC(=O)[C@@H](NC(=O)[C@H](CC(=O)O)NC(=O)[C@H](CCC(N)=O)NC(=O)[C@H](CC(C)C)NC(=O)[C@H](CC(C)C)NC(=O)[C@H](CCCN)NC(=O)[C@H](CCCNC(=N)N)NC(=O)[C@H](C)NC(=O)[C@H](CO)NC(=O)[C@H](CC(C)C)NC(=O)[C@H](CCC(N)=O)NC(=O)[C@H](CC)NC(=O)[C@H](CC(C)C)NC(=O)[C@@H](NC(=O)[C@H](CCCN)NC(=O)[C@H](CCCNC(=N)N)NC(=O)[C@H](Cc1ccc(O)cc1)NC(=O)[C@H](CO)NC(=O)[C@H](CCC(N)=O)NC(=O)[C@@H](NC(=O)[C@H](Cc1c(F)c(F)c(F)c(F)c1F)NC(=O)[C@@H](NC(=O)[C@H](C)NC(=O)[C@H](CC(=O)O)NC(=O)[C@@H](C)NC(=O)[C@H](Cc1ccc(O)cc1)NC)[C@@H](C)CC)[C@@H](C)O)C(C)C)[C@@H](C)CC)C(=O)N[C@@H](CC(=O)O)C(=O)N[C@@H](CCCNC(=N)N)C(=O)NC | GH release | male rat, serum | subcutaneous, dose not given, 15 min | baseline: GHRH(1-29)NH2 | relative potency | 97.1
C[C@@H](O)[C@@H]1NC(=O)[C@H](CCCCN)NC(=O)[C@@H](Cc2ccc(NC(N)=O)cc2)NC(=O)[C@H](Cc2ccc(NC(=O)[C@@H]3CC(=O)NC(=O)N3)cc2)NC(=O)[C@H](NC(=O)[C@H](Cc2ccc(Cl)cc2)NC(=O)CN2CCN(CC(=O)O)CCN(CC(=O)O)CCN(CC(=O)O)CC2)CSSC[C@@H](C(=O)N[C@H](Cc2ccc(O)cc2)C(N)=O)NC1=O [gallium-68 labelled] | PET/CT | human neuroendocrine tumour patients, liver lesions | 60 min |  | SUVmax | 25 ± 22
CCCC[C@H](NC(=O)[C@@H](NC(=O)[C@H](CC(=O)O)NC(=O)[C@H](CCC(N)=O)NC(=O)[C@H](CC(C)C)NC(=O)[C@H](CC(C)C)NC(=O)[C@H](CCCN)NC(=O)[C@H](CCCNC(=N)N)NC(=O)[C@H](C)NC(=O)[C@H](CO)NC(=O)[C@H](CC(C)C)NC(=O)[C@H](CCC(N)=O)NC(=O)[C@H](CC)NC(=O)[C@H](CC(C)C)NC(=O)[C@@H](NC(=O)[C@H](CCCN)NC(=O)[C@H](CCCNC(=N)N)NC(=O)[C@H](Cc1ccc(O)cc1)NC(=O)[C@H](CO)NC(=O)[C@H](CCC(N)=O)NC(=O)[C@@H](NC(=O)[C@H](Cc1ccccc1)NC(=O)[C@@H](NC(=O)[C@H](C)NC(=O)[C@H](CC(=O)O)NC(=O)[C@@H](C)NC(=O)[C@H](Cc1ccc(O)cc1)N(C)C(C)=O)[C@@H](C)CC)[C@@H](C)O)C(C)C)[C@@H](C)CC)C(=O)N[C@@H](CC(=O)O)C(=O)NCCCCNC(=N)N | GH release | rat, male, serum | subcutaneous, 3 µg/kg, 15 min | baseline: reference GHRH agonist JI-38 | relative potency | 0.3
COc1ccc(NC(=O)c2ccc(N(C)C(C)=N)cc2)c(C(=O)Nc2ccc(Cl)cn2)c1 |  | human plasma |  |  | concentration doubling prothrombin time | 0.1 ± 0.2 µM
O=C1c2c(cc(O)c3c2oc2cc(O)c(O)cc23)OC1Cc1ccc(O)c(O)c1 (centres unmarked) | ABTS scavenging, absorbance |  |  |  | EC50 | 880 µM
CCCC[C@H](NC(=O)[C@@H](NC(=O)[C@H](CC(=O)O)NC(=O)[C@H](CCC(N)=O)NC(=O)[C@H](CC(C)C)NC(=O)[C@H](CC(C)C)NC(=O)[C@H](CCCN)NC(=O)[C@H](CCCNC(=N)N)NC(=O)[C@H](C)NC(=O)[C@H](CO)NC(=O)[C@H](CC(C)C)NC(=O)[C@H](CCC(N)=O)NC(=O)[C@H](CC)NC(=O)[C@H](CC(C)C)NC(=O)[C@@H](NC(=O)[C@H](CCCN)NC(=O)[C@H](CCCNC(=N)N)NC(=O)[C@H](Cc1ccc(O)cc1)NC(=O)[C@H](CO)NC(=O)[C@H](CCC(N)=O)NC(=O)[C@@H](NC(=O)[C@H](Cc1ccccc1)NC(=O)[C@@H](NC(=O)[C@H](C)NC(=O)[C@H](CC(=O)O)NC(=O)[C@@H](C)NC(=O)[C@H](Cc1ccc(O)cc1)NC)[C@@H](C)CC)[C@@H](C)O)C(C)C)[C@@H](C)CC)C(=O)N[C@@H](CC(=O)O)C(=O)NCCCCNC(=N)N | GH release | rat, male, serum | subcutaneous, dose not given, 15 and 30 min | baseline: reference GHRH agonist JI-38 | relative potency | 1 to 4 fold
CCCCCCCCCC(=O)NCCCC[C@H](NC(=O)[C@H](CC(C)C)NC(=O)[C@H](CCCCN)NC(=O)[C@H](CCCCNC(=O)[C@H](CC(C)C)NC(=O)[C@H](CCN)NC(=O)[C@H](CCCCNC(=O)[C@H](Cc1ccccc1)NC(=O)[C@@H](N)CCCN)NC(=O)[C@H](Cc1ccccc1)NC(=O)[C@@H](N)CCCN)NC(=O)[C@H](CC(C)C)NC(=O)[C@H](CCN)NC(=O)[C@H](CCCCNC(=O)[C@H](Cc1ccccc1)NC(=O)[C@@H](N)CCCN)NC(=O)[C@H](Cc1ccccc1)NC(=O)[C@@H](N)CCCN)C(N)=O | carboxyfluorescein release | EYPG vesicles | 10 µg/mL, 250 s, pH 7.4, 25 °C | baseline: Triton X-100 | leakage | 64%
CCCC[C@H](NC(=O)[C@@H](NC(=O)[C@H](CC(=O)O)NC(=O)[C@H](CCC(N)=O)NC(=O)[C@H](CC(C)C)NC(=O)[C@H](CC(C)C)NC(=O)[C@H](CCCN)NC(=O)[C@H](CCCNC(=N)N)NC(=O)[C@H](C)NC(=O)[C@H](CO)NC(=O)[C@H](CC(C)C)NC(=O)[C@H](CCC(N)=O)NC(=O)[C@H](CC)NC(=O)[C@H](CC(C)C)NC(=O)[C@@H](NC(=O)[C@H](CCCN)NC(=O)[C@H](CCCNC(=N)N)NC(=O)[C@H](Cc1ccc(O)cc1)NC(=O)[C@H](CO)NC(=O)[C@H](CCC(N)=O)NC(=O)[C@@H](NC(=O)[C@H](Cc1ccccc1)NC(=O)[C@@H](NC(=O)[C@H](C)NC(=O)[C@H](CC(=O)O)NC(=O)[C@@H](C)NC(=O)CCc1ccc(O)cc1)[C@@H](C)CC)[C@@H](C)O)C(C)C)[C@@H](C)CC)C(=O)N[C@@H](CC(=O)O)C(=O)N[C@H](CCCNC(=N)N)C(=O)NC | GH release | male rat, serum | subcutaneous, dose not given, 15 min | baseline: GHRH(1-29)NH2 | relative potency | 58.8
COc1ccc(C2CC(c3ccc(C)cc3)=Nc3ccccc3S2)cc1OC (centres unmarked) |  | Wistar rat, STZ-induced diabetes, serum | 10 mg/kg, 28 days |  | total cholesterol | 147 mg/dL
O=c1cc(-c2ccc(O)cc2)oc2cc(O)c(-c3ccc(O)c(O)c3)c(O)c12 | ABTS scavenging, absorbance |  |  |  | EC50 | 1050 µM
Nc1ccc(-c2nnc(S)o2)cc1 | nitric oxide scavenging |  |  |  | IC50 | 44.1 ± 3 µM
CC(CCC(=O)NCc1ccc(C(=O)NO)cc1)C1CCC2C3C(O)CC4CC(O)CCC4(C)C3CCC12C (centres unmarked) |  | PCK rats | oral gavage, 15 mg/kg/day, 5 months | baseline: untreated | liver weight | decreased
CCCC[C@H](NC(=O)[C@@H](NC(=O)[C@H](CC(=O)O)NC(=O)[C@H](CCC(N)=O)NC(=O)[C@H](CC(C)C)NC(=O)[C@H](CC(C)C)NC(=O)[C@H](CCCN)NC(=O)[C@H](CCCNC(=N)N)NC(=O)[C@H](C)NC(=O)[C@H](CO)NC(=O)[C@H](CC(C)C)NC(=O)[C@H](CCC(N)=O)NC(=O)[C@H](CC)NC(=O)[C@H](CC(C)C)NC(=O)[C@@H](NC(=O)[C@H](CCCN)NC(=O)[C@H](CCCNC(=N)N)NC(=O)[C@H](Cc1ccc(O)cc1)NC(=O)[C@H](CO)NC(=O)[C@H](CCC(N)=O)NC(=O)[C@@H](NC(=O)[C@H](Cc1ccccc1)NC(=O)[C@@H](NC(=O)[C@H](C)NC(=O)[C@H](CC(=O)O)NC(=O)[C@H](C)NC(=O)[C@H](Cc1ccc(O)cc1)NC)[C@@H](C)CC)[C@@H](C)O)C(C)C)[C@@H](C)CC)C(=O)N[C@@H](CC(=O)O)C(=O)N[C@@H](CCCNC(=N)N)C(=O)NC | GH release | male rat, serum | subcutaneous, dose not given, 30 min | baseline: GHRH(1-29)NH2 | relative potency | 450
C[C@H](NC(=O)COC(=O)[C@H](C)NC(=O)CO)C(=O)O |  | water | pH 8, 65 °C |  | depolymerization rate constant | 100 h⁻¹
CCCCCCCCCCCCCCCC(=O)OCC(CSC[C@H](N)C(=O)N[C@@H](CO)C(=O)N[C@@H](CCCCN)C(=O)N[C@@H](CCCCN)C(=O)N[C@@H](CCCCN)C(=O)N[C@@H](CCCCN)C(=O)NCCCCCC(=O)N[C@@H](CCCCN)C(=O)N[C@@H](CC(C)C)C(=O)N[C@H](C(=O)N[C@@H](Cc1ccccc1)C(=O)N[C@@H](Cc1ccccc1)C(=O)N[C@@H](Cc1ccc2ccccc2c1)C(=O)O)C(C)C)OC(=O)CCCCCCCCCCCCCCC (some centres unmarked) |  | APP/PS1 mouse | intracortical, dose not given, 2 d | baseline: vehicle | OC-positive plaque area | increased
COC1OC(C)C(OC2OC(C)C(O)C(OC3OC(C)C(OC4OC(C)C(O)C(OC5OC(C)C(OC6OC(C)C(O)C(OC7OC(C)C(OC8OC(C)C(O)C(OS(=O)(=O)O)C8OS(=O)(=O)O)C(OS(=O)(=O)O)C7OS(=O)(=O)O)C6OS(=O)(=O)O)C(OS(=O)(=O)O)C5OS(=O)(=O)O)C4OS(=O)(=O)O)C(OS(=O)(=O)O)C3OS(=O)(=O)O)C2OS(=O)(=O)O)C(OS(=O)(=O)O)C1OS(=O)(=O)O (centres unmarked) | clotting time | human plasma |  |  | concentration doubling APTT | 16.4 µg/mL
COc1ccc2c(c1)c(CC(=O)OCC(=O)c1ccccc1)c(C)n2C(=O)c1ccc(Cl)cc1 | hot plate test | BALB/c mice | 100 mg/kg, 120 min |  | latency of nociceptive response | 16.4 ± 0.56 s
C=C(c1cc(F)c(C(=O)O)c(F)c1)c1cc2c(cc1C)C(C)(C)CCC2(C)C | RNA sequencing, measured: Cav1 mRNA | rat, brain | dose not given, 24 h, single dose | baseline: vehicle | log2 fold change | 0.18
CCc1nnc(NS(=O)(=O)c2ccc(NC(=S)NC(=O)/C=C/c3ccc(F)cc3)cc2)s1 |  | NXS2 allograft, A/J mice, tumour | intraperitoneal, 20 mg/kg daily, 3 weeks | baseline: vehicle | IL-1beta level | decreased

Some of these lines once more:
Compound | assay | test system | setting | scale | measurement | result
CCCCCCCCCCCCCCCC(=O)OCC(CSC[C@H](N)C(=O)N[C@@H](CO)C(=O)N[C@@H](CCCCN)C(=O)N[C@@H](CCCCN)C(=O)N[C@@H](CCCCN)C(=O)N[C@@H](CCCCN)C(=O)NCCCCCC(=O)N[C@@H](CCCCN)C(=O)N[C@@H](CC(C)C)C(=O)N[C@H](C(=O)N[C@@H](Cc1ccccc1)C(=O)N[C@@H](Cc1ccccc1)C(=O)N[C@@H](Cc1ccc2ccccc2c1)C(=O)O)C(C)C)OC(=O)CCCCCCCCCCCCCCC (some centres unmarked) |  | APP/PS1 mouse | intracortical, dose not given, 2 d | baseline: vehicle | OC-positive plaque area | increased
COC1OC(C)C(OC2OC(C)C(O)C(OC3OC(C)C(OC4OC(C)C(O)C(OC5OC(C)C(OC6OC(C)C(O)C(OC7OC(C)C(OC8OC(C)C(O)C(OS(=O)(=O)O)C8OS(=O)(=O)O)C(OS(=O)(=O)O)C7OS(=O)(=O)O)C6OS(=O)(=O)O)C(OS(=O)(=O)O)C5OS(=O)(=O)O)C4OS(=O)(=O)O)C(OS(=O)(=O)O)C3OS(=O)(=O)O)C2OS(=O)(=O)O)C(OS(=O)(=O)O)C1OS(=O)(=O)O (centres unmarked) | clotting time | human plasma |  |  | concentration doubling APTT | 16.4 µg/mL
